{"data": "Published values from different studies", "TDP1": "Tyrosyl-DNA phosphodiesterase 1 (TDP1, Homo sapiens, UniProt Q9NUW8)", "note": "Each line is one published result; not all experiments were run side by side.", "chain of UniProt Q9NUW8 (whole entry, looked up)": "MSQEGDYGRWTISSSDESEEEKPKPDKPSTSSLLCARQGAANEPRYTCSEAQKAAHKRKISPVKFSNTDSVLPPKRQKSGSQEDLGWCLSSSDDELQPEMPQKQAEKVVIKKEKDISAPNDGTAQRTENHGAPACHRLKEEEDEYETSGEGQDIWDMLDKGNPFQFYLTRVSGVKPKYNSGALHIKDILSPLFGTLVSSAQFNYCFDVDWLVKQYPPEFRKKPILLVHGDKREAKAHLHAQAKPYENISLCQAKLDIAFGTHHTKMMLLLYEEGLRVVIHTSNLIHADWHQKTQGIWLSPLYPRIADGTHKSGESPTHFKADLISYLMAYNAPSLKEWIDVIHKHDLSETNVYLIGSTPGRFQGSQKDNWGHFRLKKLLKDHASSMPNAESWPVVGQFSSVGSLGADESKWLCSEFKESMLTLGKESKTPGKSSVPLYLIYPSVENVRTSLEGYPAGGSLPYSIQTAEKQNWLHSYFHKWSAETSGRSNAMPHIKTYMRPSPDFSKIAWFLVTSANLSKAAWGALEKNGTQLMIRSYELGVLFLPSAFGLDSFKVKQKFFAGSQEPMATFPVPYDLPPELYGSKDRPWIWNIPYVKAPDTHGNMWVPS"}
{"Structure (SMILES)": "CC(c1c[nH]c2ccccc12)c1c[nH]c2ccccc12", "target or system": "Phocaeicola dorei", "assay": "bacterial growth, inhibitor, OD600", "setting": "anaerobic", "endpoint": "IC50", "value": "> 50 µM"}
{"Structure (SMILES)": "COc1ccccc1NC(=O)OC1C(C)C(OC)C=COC2(C)Oc3c(C)c(O)c4c(c3C2=O)C2=NC3(CCN(CC(C)C)CC3)NC2=C(NC(=O)C(C)=CC=CC(C)C(O)C(C)C(O)C1C)C4=O (stereo not drawn)", "target or system": "Mycobacteroides abscessus", "assay": "intracellular growth, visual read", "system": "THP-1 derived macrophages, ATCC 19977", "endpoint": "IC50", "value": "0.018 µM"}
{"Structure (SMILES)": "CCCCC(CC)COC(=O)CC(C(=O)OCC(CC)CCCC)S(=O)(=O)O.COC(=O)Nc1nc2cc(C(=O)c3ccccc3)ccc2[nH]1 (stereo not drawn)", "target or system": "Cryptococcus neoformans var. grubii", "assay": "EUCAST broth microdilution", "system": "KN99α reference strain", "setting": "72 h, 37 °C, RPMI with 2% glucose", "endpoint": "IC50", "value": "0.312 µM"}
{"Structure (SMILES)": "c1ccc2c([C+](c3c[nH]c4ccccc34)c3c[nH]c4ccccc34)c[nH]c2c1", "target or system": "Phocaeicola dorei", "assay": "bacterial growth, inhibitor, OD600", "setting": "anaerobic", "endpoint": "IC50", "value": "> 50 µM"}
{"Structure (SMILES)": "CS(=O)(=O)c1ccc(C=NOCc2ccc3nc(-c4ccccc4)c(Nc4ccc(C(=O)O)cc4)n3c2)c(Cl)c1 (mixture of isomers)", "target or system": "TDP1", "assay": "enzyme activity, inhibitor", "setting": "100 µM, unpurified compound", "endpoint": "inhibition", "value": "49%"}
{"Structure (SMILES)": "CC(C)[C@@H]1NC(=O)[C@@H](CCCNC(=N)N)NC(=O)[C@H]([C@@H](C)O)NC(=O)[C@@H](CCCN)NC(=O)[C@H](Cc2cccc(F)c2)NC(=O)[C@@H](Cc2ccccc2)NC1=O", "target or system": "Balamuthia mandrillaris", "assay": "parasite growth, ATP luminescence", "setting": "72 h", "endpoint": "IC50", "value": "≤ 5 µM"}
{"Structure (SMILES)": "c1ccc2c(Cc3c[nH]c4ccccc34)c[nH]c2c1", "target or system": "Phocaeicola dorei", "assay": "bacterial growth, inhibitor, OD600", "setting": "anaerobic", "endpoint": "IC50", "value": "> 50 µM"}
{"Structure (SMILES)": "O=C(O)c1ccc(Nc2c(-c3ccc(CON=CC4(c5ccccc5Cl)CCOCC4)cc3)nc3cc(-c4ccccc4)ccn23)cc1", "target or system": "TDP1", "assay": "enzyme activity, inhibitor", "setting": "100 µM, unpurified compound", "endpoint": "inhibition", "value": "30.1%"}
{"Structure (SMILES)": "Cc1ccc(Nc2n[nH]c3nc(-c4cccc(F)c4)nc(N)c23)cc1", "target or system": "rhinovirus A2", "assay": "viral cytopathic effect", "system": "HeLa", "endpoint": "IC50", "value": "7.24 µM"}
{"Structure (SMILES)": "CCN(CC)CC#CCNc1ccnc2cc(Cl)ccc12", "target or system": "Plasmodium falciparum", "assay": "parasite growth, LDH", "endpoint": "IC50", "value": "0.086 µM"}
{"Structure (SMILES)": "Cc1cccc(-c2nc(N)c3c(Nc4ccc(F)cc4)n[nH]c3n2)c1", "target or system": "rhinovirus A2", "assay": "viral cytopathic effect", "system": "HeLa", "endpoint": "IC50", "value": "3.59 µM"}
{"Structure (SMILES)": "Nc1nc(=O)[nH]cc1F", "target or system": "Balamuthia mandrillaris", "assay": "parasite growth", "endpoint": "IC50", "value": "86 µM"}
{"Structure (SMILES)": "CSc1ccc(Nc2n[nH]c3nc(-c4ccccc4)nc(N)c23)cc1", "target or system": "rhinovirus A2", "assay": "viral cytopathic effect", "system": "HeLa", "endpoint": "IC50", "value": "23 µM"}
{"Structure (SMILES)": "CC(C)[C@@H]1NC(=O)[C@@H](CCCNC(=N)N)NC(=O)[C@H]([C@@H](C)O)NC(=O)[C@@H](CCCN)NC(=O)[C@H](Cc2ccccc2)NC(=O)[C@@H](Cc2ccc(F)cc2)NC1=O", "target or system": "Balamuthia mandrillaris", "assay": "parasite growth, ATP luminescence", "endpoint": "IC50", "value": "12 µM"}
{"Structure (SMILES)": "Cn1nc(Nc2ccc(C#N)cc2)c2c(N)nc(-c3ccccc3)nc21", "target or system": "rhinovirus A2", "assay": "viral cytopathic effect", "system": "HeLa", "endpoint": "IC50", "value": "92.3 µM"}
{"Structure (SMILES)": "CC(=O)C(C)(c1c[nH]c2ccccc12)c1c[nH]c2ccccc12", "target or system": "Phocaeicola dorei", "assay": "bacterial growth, inhibitor, OD600", "setting": "anaerobic", "endpoint": "IC50", "value": "> 50 µM"}
{"Structure (SMILES)": "CC(C)[C@@H]1NC(=O)[C@@H](CCCNC(=N)N)NC(=O)[C@H]([C@@H](C)O)NC(=O)[C@@H](CCCN)NC(=O)[C@H](Cc2ccccc2)NC(=O)[C@@H](Cc2cccc(F)c2)NC1=O", "target or system": "Balamuthia mandrillaris", "assay": "parasite growth, ATP luminescence", "setting": "72 h", "endpoint": "IC50", "value": "≤ 5 µM"}
{"Structure (SMILES)": "Cc1ccc(-c2nc(N)c3c(Nc4ccccc4)n[nH]c3n2)cc1", "target or system": "rhinovirus A2", "assay": "viral cytopathic effect", "system": "HeLa", "endpoint": "IC50", "value": "1.26 µM"}
{"note": "Some of these lines once more:"}
{"Structure (SMILES)": "CC(c1c[nH]c2ccccc12)c1c[nH]c2ccccc12", "target or system": "Phocaeicola dorei", "assay": "bacterial growth, inhibitor, OD600", "setting": "anaerobic", "endpoint": "IC50", "value": "> 50 µM"}
{"Structure (SMILES)": "COc1ccccc1NC(=O)OC1C(C)C(OC)C=COC2(C)Oc3c(C)c(O)c4c(c3C2=O)C2=NC3(CCN(CC(C)C)CC3)NC2=C(NC(=O)C(C)=CC=CC(C)C(O)C(C)C(O)C1C)C4=O (stereo not drawn)", "target or system": "Mycobacteroides abscessus", "assay": "intracellular growth, visual read", "system": "THP-1 derived macrophages, ATCC 19977", "endpoint": "IC50", "value": "0.018 µM"}
